Published values from different studies.
± gives the spread as reported. In brackets after ≈: the same amount, converted by molar mass.

COc1ccc2cc(-c3ccc(-c4ccc(C)cn4)nc3)oc2c1 — emission wavenumber shift (zinc(II); neutral aqueous solution; zinc saturation; reference: zinc-free ligand): 1840 cm⁻¹
O=C1CCN(Cc2ccccc2)CC1C(C[N+](=O)[O-])c1ccccc1 (centres unmarked) — tail flick response (tail immersion test; BALB/c mice; ip, 25 mg/kg, 1.5 h): 34.1%
O=C(O)[C@@H]1C[C@@H](O)CN1C(=O)[C@@H]1CCCN1 — ΔS (iron(III) ion; complex formation, Van't Hoff plot; aqueous 0.15 M NaCl; MAH−1 complex species): -0.97 kJ/mol/K
COc1cc(CCC(C)=O)ccc1O — IC50 (mouse mAb 1-F12; antibody binding, indirect competitive ELISA; added: coating antigen 3-OVA): > 4 µg/mL
Cc1c(Cc2cc(C(C)(C)C)c(O)c(C(C)(C)C)c2)c(C)c(Cc2cc(C(C)(C)C)c(O)c(C(C)(C)C)c2)c(C)c1Cc1cc(C(C)(C)C)c(O)c(C(C)(C)C)c1 — concentration in mucosal solution (Cyprinus carpio; everted gut sac; intestine; concentration not given, 24 h, 23 °C): 63.7 ± 5.1 µg/mL
NC(=O)N/N=C/c1ccccn1 — log stability constant (Cu2+ complex; potentiometric titration; 25 °C): 16.7
CCCCCCCCCCCCCC(=O)Nc1ccccc1SSc1ccccc1NC(=O)CCCCCCCCCCCCC — viability (HaCaT; cell growth or viability, MTT; 20 mg/mL, 24 h): 100%
N=C(N)NCCC[C@@H]1NC(=O)[C@H](CCCCNC(=O)CNC(=O)CNC(=O)CNC(=O)CC[C@H](NC(=O)CNC(=O)CNC(=O)CNC(=O)CN2CCN(CC(=O)O)CCN(CC(=O)O)CCN(CC(=O)O)CC2)C(=O)NCC(=O)NCC(=O)NCC(=O)NCCCC[C@@H]2NC(=O)[C@@H](Cc3ccccc3)NC(=O)[C@H](CC(=O)O)NC(=O)CNC(=O)[C@H](CCCNC(=N)N)NC2=O)NC(=O)[C@@H](Cc2ccccc2)NC(=O)[C@H](CC(=O)O)NC(=O)CNC1=O [indium-111 labelled] — tissue uptake (female athymic nu/nu mice, eyes; intravenous, 72 h): 0.16 ± 0.03 %ID/g
N#CCc1cccc(Cl)c1-c1ccc2[nH][11c](=O)[nH]c2c1 — brain-to-blood ratio increase (P-glycoprotein and Bcrp; ex vivo brain uptake; mouse; injection, 30 min, added: tariquidar and Ko143; reference: without inhibitors): 233%
Nc1ccccc1C(=O)NS(=O)(=O)OC[C@H]1O[C@@H](n2cnc3c(N)ncnc32)[C@H](O)[C@@H]1O — intracellular concentration (Pseudomonas aeruginosa; LC-MS/MS of lysate; PA14, LB medium; 1000 µM, 30 min, OD600 0.5): 20 to 30 µM
N=C(N)NCCC[C@@H]1NC(=O)[C@H](CCCCNC(=O)CC[C@H](NC(=O)CC[C@H](NC(=O)CN2CCN(CC(=O)O)CCN(CC(=O)O)CCN(CC(=O)O)CC2)C(=O)N[C@@H](CCC(=O)NCCCC[C@@H]2NC(=O)[C@@H](Cc3ccccc3)NC(=O)[C@H](CC(=O)O)NC(=O)CNC(=O)[C@H](CCCNC(=N)N)NC2=O)C(=O)NCCCC[C@@H]2NC(=O)[C@@H](Cc3ccccc3)NC(=O)[C@H](CC(=O)O)NC(=O)CNC(=O)[C@H](CCCNC(=N)N)NC2=O)C(=O)NCCCC[C@@H]2NC(=O)[C@@H](Cc3ccccc3)NC(=O)[C@H](CC(=O)O)NC(=O)CNC(=O)[C@H](CCCNC(=N)N)NC2=O)NC(=O)[C@@H](Cc2ccccc2)NC(=O)[C@H](CC(=O)O)NC(=O)CNC1=O [indium-111 labelled] — tissue uptake (female athymic nu/nu mice, eyes; intravenous, 4 h): 0.92 ± 0.46 %ID/g
CCCCCCCCCCCC(=O)Nc1ccccc1SSc1ccccc1NC(=O)CCCCCCCCCCC — viability (HaCaT; cell growth or viability, MTT; 5 mg/mL, 24 h): 100%
[64Cu+2].c1cnc(CNCc2ccc(CN3CCCN4CCNCCCN(CC4)CC3)cc2)nc1 — tissue uptake (CXCR4; NOD/SCID mouse, U87 and U87-stb-CXCR4 xenografts, lungs; iv, 60 min, ex vivo): 8.12 ± 0.61 %ID/g
CCCCC/C=C/C(=O)CCc1ccc(O)c(OC)c1 — IC50 (mouse mAb 1-F12; antibody binding, indirect competitive ELISA; added: coating antigen hapten 5-OVA): 0.118 µg/mL (≈ 0.426 µM)
O=C(O)CCC(NP(=O)(O)OCCC[C@@H](NC(=O)CC[C@H](NC(=O)CCCCCNC(=O)c1ccc([18F])cc1)C(=O)O)C(=O)O)C(=O)O (some centres unmarked) — tracer uptake (CWR22Rv1 tumour model; host not given, muscle; 4 h, tumour-bearing): 0.036 %ID/g
[64Cu+2].c1ccc(CNCc2ccc(CN3CCCN4CCNCCCN(CC4)CC3)cc2)nc1 — tissue uptake (CXCR4; NOD/SCID mouse, U87 and U87-stb-CXCR4 xenografts, spleen; iv, 90 min, ex vivo): 16.4 ± 2.76 %ID/g
COc1cc(O)c(-c2c(O)cc(OC)c3c2ccc2cc(O)ccc23)c2ccc3ccccc3c12 — viability (BV-2; cell growth or viability, MTT; 5 µM, 24 h): 104%
CC(C)=CCCC(C)=CCc1cc(-c2coc3cc(OC4OC(C(=O)O)C(O)C(O)C4O)ccc3c2=O)ccc1O (centres unmarked) — substrate inhibition Ki (glucuronidation, substrate; pooled human liver microsomes): 18.1 ± 4.51 µM
COc1cc(O)cc2c1-c1ccc(O)c(OC)c1CC2 — viability (BV-2; cell growth or viability, MTT; 5 µM, 24 h): 104%
CC(=O)N[C@H](C(=O)N[C@H](C(=O)N[C@@H](CCCNC(=N)N)C(=O)N1Cc2ccccc2C[C@H]1C(=O)N[C@@H](Cc1ccccc1)C(N)=O)C1CCCCC1)C(C)C — cytokine level (human PBMC; Bio-Plex multiplex, item: TNF-a; 500 µg/mL, 24 h): 7 ± 3.1 pg/mL
